Assay results collected from several papers.
A part holds a random share of what one study measured. Changes are numbered by the printed parent chain.

Set 1
Target: RING finger protein unkempt homolog, zinc fingers 1-6, GST-SBP tag (UNK, Homo sapiens, UniProt Q9C0B0, residues 30-357)
Chain of UniProt Q9C0B0 (30-357, looked up): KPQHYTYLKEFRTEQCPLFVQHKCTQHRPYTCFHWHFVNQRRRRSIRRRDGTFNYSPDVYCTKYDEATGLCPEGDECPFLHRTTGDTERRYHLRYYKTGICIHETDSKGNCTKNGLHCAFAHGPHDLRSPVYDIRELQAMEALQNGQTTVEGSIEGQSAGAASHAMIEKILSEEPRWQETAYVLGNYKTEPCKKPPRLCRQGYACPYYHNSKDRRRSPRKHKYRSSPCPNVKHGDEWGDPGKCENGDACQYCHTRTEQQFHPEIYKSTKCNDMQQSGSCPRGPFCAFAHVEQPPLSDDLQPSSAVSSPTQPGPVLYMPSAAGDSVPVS
Technique: RNA Bind-n-Seq
Form: RNA
Medium: in vitro
Tested at: not given
Setting: RNA with constant flanks, human-mouse chimeric sites, ends assumed
Relative to: input RNA pool
Reading: higher = stronger binding
Shared flanks, not repeated: GGGAGUUCUACAGUCCGACGAUC … CAACAGAGGAUUGAGCAUCA
| Strand | bound/input enrichment |
| --- | --- |
| CGCUUGGAUGAGGCGGGUGUUACUGAUGAAGUGCUAGAUUCUGCCAUGCAAGCCUUCCUUCUGGAGGUCAUUGUUAAGCAUGGGGAGCCGGCACCUUAUUUAUGUAACAAAGAUCCGUUU | 0.11 ratio |
| GAUAAGAAAAGCUUGUUGGAGACCCGCUUGCAUGUCACUGGUAGAGACCUGAGGUGUAAAAUAGCUGAAACUUUCGGAUUUCAAGAAAAUUACAUCAAAAUUGUCAUAAAUAAGAAACAG | 0.208 ratio |
| GGCCUGGGACCGUCCUGGGCUAGUACAAUAGCGGCAGGUGGAGGCUCGAGAGGAAAGUUUGUUAGUGAGGCAGUGGUUAGAGGCCGUCAUGUACGGUCCUUUACUCGAUAGAUGUGUUCU | 0.698 ratio |
| AGAAUCUUGGGACUGUUUUACUUAAUUGGUCAUUGAUAGCUUAACAAACAUGGAGAUAAGAUUAGAAGUUUUGACAUCAACAGGUAUUAAGCAGAAAAAACCCUGGCCACGUGUCUCCUG | 0.54 ratio |
| UCAUUUUGCUCGGGUUAUUCUUUCCUUUAGGAAAAGCCUAAAGAUUAGUAAGAAAAGAAAACAGAAGCCAUGUUUCGAAGACCUGUGUUACAGGUAUUUCGUCAGUUUGUAAGACAUGAG | 0.58 ratio |
| CUUUUUAAGAAGAUAUGUGAUGGGAUCUUCUAUACCCCUCAGUACUUAAACCCUUCAGUAAUCAGCCUUUUGAAACAUAUGCUGCAGGUGGAUCCCAUGAAGAGGGCCACAAUCAAAGAU | 0.174 ratio |
| CGCUGGCCCAAGCUGAUGGACUCUGAUCUUGAUCUCUUCUCAGGCACGUGUGCCUUCUCUUAGUCCCUGUUUUCGGGAUGUUAUGAAUCUCAGUACUGUGGUUUGAAAGCAGUUAUGUUG | 0.21 ratio |
| AAUUUCCUGUCAUACUUUUUAGACAUUGCCAUAGGUAUUACAGAGCACCUGGCCACAUUCUAGGUUUGUGUUAUUUCUCAGCUAUGGAUAUGAUCAAAUGAGAACACUGCUUAACUAAUG | 0.853 ratio |

Set 2
Target: Eukaryotic initiation factor 4A-I (EIF4A1, Homo sapiens, UniProt P60842, residues 1-406, full length assumed)
Chain of UniProt P60842 (whole entry, looked up): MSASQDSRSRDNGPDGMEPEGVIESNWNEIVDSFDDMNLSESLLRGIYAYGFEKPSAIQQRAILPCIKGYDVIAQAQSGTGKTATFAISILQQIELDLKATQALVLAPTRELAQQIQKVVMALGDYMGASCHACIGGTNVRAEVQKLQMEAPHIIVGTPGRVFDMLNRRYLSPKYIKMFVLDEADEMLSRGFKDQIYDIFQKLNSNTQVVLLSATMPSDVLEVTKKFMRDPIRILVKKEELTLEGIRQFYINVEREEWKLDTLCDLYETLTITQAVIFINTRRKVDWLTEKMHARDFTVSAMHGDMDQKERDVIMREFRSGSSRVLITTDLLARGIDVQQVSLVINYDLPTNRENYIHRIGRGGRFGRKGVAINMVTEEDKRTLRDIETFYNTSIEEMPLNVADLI
Technique: RNA Bind-n-Seq
Form: RNA
Medium: in vitro
Tested at: 15 pmol
Setting: 4-mer, random 30-nt RNA, single round
Added: 3 µM DMDA-PatA, 2 mM AMP-PNP
Relative to: input library
Reading: higher = stronger binding
| Strand | 4-mer enrichment |
| --- | --- |
| UUAA | 1.08 fold |
| CGAC | 0.577 fold |
| UGGU | 1.27 fold |
| UAUA | 1.4 fold |
| UCUG | 0.873 fold |
| AUGC | 0.908 fold |
| CCUC | 0.363 fold |
| GGAA | 1.03 fold |

Set 3
Target: CCNB2, cyclin fold, Cln2 fusion (human)
Technique: yeast growth competition, sequencing
Medium: yeast
Setting: weak parent motif
Relative to: not given
Reading: higher = stronger binding
Parent: viral docking peptide; PTARRRLLHDLDT
| Change | normalised enrichment score |
| --- | --- |
| L11A | 0.32 |
| T2A | 0.203 |
| R5K L8F | 0.343 |
| H9A | 0.732 |
| L8A | -0.222 |
| L8F | 0.508 |
| R5K | 0.0688 |
| R4A | -0.059 |
| P1A | 0.614 |

Single results of other studies
Parent: PafA, mature enzyme, eGFP fusion (Elizabethkingia meningoseptica, UniProt Q9KJX5); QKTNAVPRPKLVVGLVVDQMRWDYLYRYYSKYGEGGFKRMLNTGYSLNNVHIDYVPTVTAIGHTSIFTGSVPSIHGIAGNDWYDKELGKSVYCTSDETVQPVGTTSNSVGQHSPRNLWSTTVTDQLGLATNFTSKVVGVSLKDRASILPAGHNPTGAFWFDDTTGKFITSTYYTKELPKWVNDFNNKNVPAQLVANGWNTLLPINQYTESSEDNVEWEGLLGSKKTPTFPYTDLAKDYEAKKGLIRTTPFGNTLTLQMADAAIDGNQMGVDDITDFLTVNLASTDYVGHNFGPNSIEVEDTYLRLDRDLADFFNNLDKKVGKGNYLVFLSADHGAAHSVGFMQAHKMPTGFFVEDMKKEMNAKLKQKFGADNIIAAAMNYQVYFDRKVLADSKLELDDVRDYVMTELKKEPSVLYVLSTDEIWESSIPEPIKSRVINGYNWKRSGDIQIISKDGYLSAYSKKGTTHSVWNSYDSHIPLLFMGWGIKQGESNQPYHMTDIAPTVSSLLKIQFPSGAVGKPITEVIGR
| Change | target | test | system | conditions | scale | measurement | value |
| --- | --- | --- | --- | --- | --- | --- | --- |
| D81V | vanadate, free oxyanion | microfluidic competitive inhibition | in vitro, cell-free expressed | not given, derived from inhibition constants, unchanged parent 676 nM | lower = stronger binding | oxyanion analog dissociation constant | 1.38 µM |

Excerpt of the above (set 3):
| Change | normalised enrichment score |
| --- | --- |
| L11A | 0.32 |
| R5K | 0.0688 |
| H9A | 0.732 |
| L8F | 0.508 |
